# Measurements of several laboratories.
# A part holds a random share of what one study measured. Changes are numbered by the printed parent chain.

# Block 1
# Target: CCND3, cyclin fold, Cln2 fusion (human)
# Method: yeast growth competition, sequencing
# Sample: yeast
# Setting: weak parent motif
# Baseline: not given
# Direction: higher = stronger binding
# Starting sequence: RB1 docking peptide (human); PKPLKKLRFDIEG; partner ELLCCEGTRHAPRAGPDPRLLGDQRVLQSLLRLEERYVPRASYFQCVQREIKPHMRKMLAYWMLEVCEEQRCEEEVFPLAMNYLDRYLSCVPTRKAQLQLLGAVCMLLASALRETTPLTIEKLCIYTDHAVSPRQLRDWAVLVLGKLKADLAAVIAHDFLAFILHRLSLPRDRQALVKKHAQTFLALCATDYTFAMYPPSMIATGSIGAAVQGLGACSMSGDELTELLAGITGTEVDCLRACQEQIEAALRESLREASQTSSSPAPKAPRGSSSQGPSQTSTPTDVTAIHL
Variant,normalised enrichment score
E12R,0.0813
G13R,0.225
E12H,0.0282
L7V,0.194
K5F,0.0778
P1C,0.268
D10V,0.0971
E12A,0.0182
P1R,0.17
E12G,0.181
L4P,0.0863
K5P,0.115
K5T,0.14
D10S,0.0311
R8D,0.142
K2Q,0.0855

# Block 2
# Target: RNA binding protein fox-1 homolog 2, RRM domain, GST-SBP tag (RBFOX2, Homo sapiens, UniProt O43251-10, residues 100-194)
# Method: RNA Bind-n-Seq
# Form: RNA
# Sample: in vitro
# Concentration: 365 nM
# Setting: natural RNA segment, single round, ends assumed
# Baseline: no-protein control
# Direction: higher = stronger binding
# All sequences stand within: GGGAGUUCUACAGUCCGACGAUC … UGGAAUUCUCGGGUGCCAA
Strand,RBNS enrichment (R)
AAAGCAGAUUACAGAAAUGUAAGUCAACUUAAGAACGGUGAAUGAAUGUAAAAACAUUCAGUUGAGACCAUAUGCAUUUUCUGUGCUGUUUGUACUUGAGGUAUGUAACA,0.44
AUUUAUUAUGAAUCAUUUUCCCCUAAUCUGCAUAAAUGAAUUAGAACUGAUUUUAAUAAAAAUAUUCUGUGUAAAAAGUACUCAGAAAAACAUCUAAAGCUGUUGGAGAA,0.823
GGACCUUUCCUCCCCGGUCUCAGAGAUGCACAUCUCUUUGAGGAUCGGCUUGGCUGGAAGACAGGGUGUGAGUGCGACAACAGGGGCACAGGUUGGGUUUGCCAAACGUC,0.477
GGCAGCAGAGCCAUCGCAUCAUGUUUCCCAGGGCAACUUGAGGUCUGACUUUUGGCUCCCUCGCCCUAAGAGGCUCUUCCUCUCUUUUGCUCAUCCACCUUCACACCACU,1.25
UUCUCAAGGUCACAGGCCCCAGUCCCAGCCUGGGGGCUGGCAGAGGCCCCCAUAUACUCUGCUACAGCUCCUAUCAUGAAAAAUAAAAUGUUUGUCUUUGCAAAACAGUA,0.488
CCCCUGCACCCCUGGAAGCCCAGCACCGGGGCCAGCAGGCUGUGUUCCGUGCUUGCCAACCUAGACCCUGGCAUUAGAAAUUGUUUUGUCAGCAGUCUCUGCCCUCUCGA,0.406
AAGUUGUAAACACAGUGUGGUUAUGGGGAGAGGGCAUAUAAAUUCCCCAUAUUUGUGUUCAGUUCCAGCUUUUGUAGAUGGCACUUUAGUGAUUGCUUUUAUUACAUUAG,0.682
UUAUACACUUGGUCUUUCCAUGUAUAUACCGGCCUCUGUUUUUUUUUUUUCCAAUCUCUGGCUCUUCUGUCAUCUUCCAAGCAGCGUCUGAGAGCUCUGCACGGGCACAG,0.659

# Block 3
# Target: ABI1, truncated, D143A, DHFR fusion (Arabidopsis thaliana)
# Method: DHFR PCA, deep sequencing
# Sample: yeast
# Setting: methotrexate growth selection, single substitutions
# Together with: (+)-ABA 200 µM
# Baseline: wild-type fitted maximum
# Direction: higher = stronger binding
# Starting sequence: PYL1, truncated, DHFR fusion (Arabidopsis thaliana); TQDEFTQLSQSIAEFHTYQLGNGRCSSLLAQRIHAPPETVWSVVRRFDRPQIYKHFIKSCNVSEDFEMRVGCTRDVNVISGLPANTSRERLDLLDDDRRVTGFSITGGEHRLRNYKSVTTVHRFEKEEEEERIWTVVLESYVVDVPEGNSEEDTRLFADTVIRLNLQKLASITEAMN; partner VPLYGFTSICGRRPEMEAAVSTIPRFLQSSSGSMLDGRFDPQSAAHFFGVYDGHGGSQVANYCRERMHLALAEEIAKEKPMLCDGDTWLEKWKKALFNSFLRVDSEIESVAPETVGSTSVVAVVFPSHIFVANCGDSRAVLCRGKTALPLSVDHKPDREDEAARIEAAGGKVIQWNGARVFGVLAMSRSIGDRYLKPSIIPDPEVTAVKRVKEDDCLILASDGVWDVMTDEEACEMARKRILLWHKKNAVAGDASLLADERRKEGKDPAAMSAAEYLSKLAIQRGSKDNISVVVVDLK
Variant,relative binding score [%]
V44W,-8.26
S63A,107
L156K,80.7
S104R,66.1
R123K,112
R46P,48.8
D97R,98.6
M68I,104
D95G,9.39
E38S,96.3
R88N,99.9
D3Y,91
P36M,87.2

# Block 4
# Target: Interferon regulatory factor 5, full length, phosphomimetic (IRF5, Homo sapiens, UniProt Q13568-2, residues 1-514, K96S/S451D/S453D/S456D/S462D)
# Method: protein-binding microarray
# Form: double-stranded DNA, one strand shown
# Sample: in vitro
# Concentration: 250 nM
# Setting: 60-bp whole probe
# Together with: salmon DNA 0.4 mg/ml
# Baseline: random background probes
# Direction: higher = stronger binding
# All sequences stand within: GCCTAGCAC … GTCTTGATTCGCTTGACGCTGCTG
Strand,log fluorescence
AATTTTTTGTATTTTTAGTGGTGCTAG,1.14 z-score
GACGATATCAGTATAGAGACGTGCTAG,1.52 z-score
TAAGATATCAGTATCGATTAGTGCTAG,7.4 z-score
TCAGCTTCCCAATTCTCACTGTGCTAG,0.552 z-score
GACGGACTGGGGTATCGGGTCGTGCTA,0.497 z-score
AATCTTTTCACTTTCTTTAAGTGCTAG,4.25 z-score
TCAACTCCCTCTCTGGCACTGTGCTAG,-0.0605 z-score
TGAGGTTTCCTTTTCCTTTAGTGCTAG,1.16 z-score
TTAGAACTGAGTTTCAATTAGTGCTAG,2.39 z-score
GCCGGACTGGACACTGGGGACGTGCTA,-0.816 z-score
GCCCATCTCTGCTCCTTCTGGTGCTAG,-0.329 z-score
ACAGCCTTTCTAACTTGAAAGTGCTAG,0.375 z-score
GACGGTTCAGGTTTCGGGACGTGCTAG,2.41 z-score
TTAGGTATCGACACTGCGTTAGTGCTA,2.37 z-score
GACGGTATCCTTAACCTGACGTGCTAG,-0.204 z-score
TTAGATGTCGGGTATCGATTAGTGCTA,2.98 z-score
TCACATCTCATATAAATAACTGTGCTA,0.717 z-score
TTAGGTATCGGGTTTCCGTTAGTGCTA,4.1 z-score
GTCGAACTGGGGACTGGAGACGTGCTA,-0.706 z-score

# Block 5
# Target: PABPC1L2, full length, GST fusion (mouse, UniProt A0ABA7IW68)
# Method: RNAcompete
# Form: RNA
# Sample: in vitro
# Concentration: 20 nM
# Setting: 7-mer, probes averaged, single round
# Baseline: mean of 7-mers
# Direction: higher = stronger binding
# Target sequence (chain): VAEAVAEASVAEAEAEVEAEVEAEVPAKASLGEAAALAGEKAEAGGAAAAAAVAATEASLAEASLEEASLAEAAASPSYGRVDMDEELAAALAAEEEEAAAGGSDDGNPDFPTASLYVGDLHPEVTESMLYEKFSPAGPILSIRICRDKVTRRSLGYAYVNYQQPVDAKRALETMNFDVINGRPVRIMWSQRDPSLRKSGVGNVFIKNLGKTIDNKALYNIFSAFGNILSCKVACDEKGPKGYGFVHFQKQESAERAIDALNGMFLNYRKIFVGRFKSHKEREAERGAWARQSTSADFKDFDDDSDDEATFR
Strand,7-mer Z-score
AAGUUCG,-0.104
AAAACUG,4.91
GUUAAAU,0.182
CGCCCGC,-0.34
CGAUUAA,0.142
GAUAAAA,4.71
CAUUUCA,-0.226
UCUAUUG,-0.287
CACUAGU,-0.34
UUUCGAG,-0.267
UUUCGUU,-0.566
GUGUAGG,0.256
CAACGAU,0.0279
UCGUGCU,-0.271
ACCGUGC,-0.0844
GCCGAGU,-0.204
UUAUGGA,-0.0573
AGACUGU,-0.335
AUAAUAG,-0.0047
GUAGGUG,0.109
CGGUGCG,0.0406
AUUUCGC,-0.427
AAGGUAG,0.122
CUGGGUC,-0.219
CUUUUCG,-0.273

# Excerpt of the above (block 5):
Strand,7-mer Z-score
GUUAAAU,0.182
CGCCCGC,-0.34
CGAUUAA,0.142
GAUAAAA,4.71
CAUUUCA,-0.226
UCUAUUG,-0.287
CACUAGU,-0.34
UUUCGAG,-0.267
UUUCGUU,-0.566
GUGUAGG,0.256
CAACGAU,0.0279
UCGUGCU,-0.271
